{"data": "Experimental data of several laboratories", "note": "Protocols differ between the studies behind these lines. Numbers after ± are the reported error."}
{"Substance": "CS(=O)(=O)n1cc2c(n1)CN([C@H]1CO[C@H](c3cc(F)ccc3F)[C@@H](N)C1)C2", "system": "human, plasma", "setting": "oral, single low doses", "endpoint": "beta-phase half-life", "result": "93 to 116 h"}
{"Substance": "NCCCn1c2c(c3ccc(N)cc3c1=O)C(=O)c1ccccc1-2", "system": "Sprague-Dawley rat, female, liver", "setting": "oral gavage, 40 mg/kg/day, 3 h after last dose, dosed 3 days", "endpoint": "tissue concentration", "result": "3720 ± 70 ng/g"}
{"Substance": "C[C@@H](O)[C@H]1C(=O)N2C(C(=O)O)=C(S[C@@H]3CN[C@H](C(=O)N(C)C)C3)[C@H](C)[C@H]12", "test": "microdialysis", "system": "pig, Danish Landrace, cortical bone", "setting": "intravenous, 1000 mg over 10 min, 450 min dosing interval, together with: 0.125 µg/mL MIC", "how to read": "reference: dosing interval", "endpoint": "time above MIC", "result": "42%"}
{"Substance": "Cn1c(-c2ccc(C(N)=O)cc2F)nnc1C(C)(C)Oc1c(F)cc(Cl)cc1F", "system": "young non-Japanese adults, plasma", "setting": "oral, 20 mg single dose, day 1, high-dose multiple-dose study", "endpoint": "Cmax median", "result": "0.236 µg/mL"}
{"Substance": "CCc1ccc(C(=O)CSc2nc(C)cc(C)c2C#N)cc1", "test": "metabolic stability", "system": "human, liver microsomes", "setting": "0.5 µM, pH 7.4", "endpoint": "microsomal CLint", "result": "1070 µL/min/mg"}
{"Substance": "O=C(O)COC[C@H]1CC[C@H](COC(=O)N(c2ccccc2)c2ccc(Cl)cc2)CC1", "system": "human, plasma", "setting": "oral, 30 µg, 12 h, multiple doses, twice daily, steady state", "endpoint": "concentration", "result": "0.00111 µg/mL"}
{"Substance": "CCOc1ccc(Cc2cc([C@@H]3S[C@H](CO)[C@@H](O)[C@H](O)[C@H]3O)c(OC)cc2C)cc1", "system": "human, plasma", "setting": "oral, 1 mg, single dose, fasted, healthy volunteers", "endpoint": "AUC(0-inf)", "result": "0.337 µg·h/mL"}
{"Substance": "O=C1N=C(N2CCOCC2)CN1c1ccc(Cl)cc1", "system": "beagle dog, female", "setting": "oral, 30 mg/kg, tablets, fasted", "endpoint": "terminal half-life", "result": "1.47 h"}
{"Substance": "CS/C(S)=N/CCCC[S+](C)[O-] (racemic)", "test": "RT-PCR, refers to: Cyp2e1", "system": "female Sprague-Dawley rat, liver", "setting": "oral gavage, 200 mg/kg, dosed for four days", "how to read": "reference: vehicle", "endpoint": "mRNA fold change", "result": 0.902}
{"Substance": "Nc1ccn([C@@H]2O[C@H](CO)[C@@H](O)C2(F)F)c(=O)n1", "system": "human cancer patients, plasma", "setting": "intravenous, 1000 mg/m^2, cycle 1 day 1, given alone", "endpoint": "AUC(tau)", "result": "8.8 µg·h/mL"}
{"Substance": "CNC(=O)c1ccc(-c2cnc3ncc(Cc4ccc5ncccc5c4)n3n2)cc1F", "system": "human, severe hepatic impairment (Child-Pugh C), plasma", "setting": "oral, 200 mg single dose", "endpoint": "Tmax (median)", "result": "1.5 h"}
{"Substance": "Nc1ccc(-c2nc(-c3ccc(Oc4ccc(C(F)(F)F)cc4)cc3)no2)cc1", "system": "ICR mice, plasma", "setting": "intravenous, 50 mg/kg", "endpoint": "initial half-life", "result": "6.7 min"}
{"Substance": "CNCc1ccc(-c2[nH]c3cc(F)cc4c3c2CCNC4=O)cc1", "system": "human, plasma", "setting": "oral, 300 mg, fed, high-fat meal, median", "endpoint": "Tmax", "result": "5.95 h"}
{"Substance": "acyl ghrelin (human)", "system": "mouse, Ghsr knockout, cerebellum", "setting": "intravenous, 10 min", "endpoint": "brain/serum ratio", "result": "7.03 µL/g"}
{"Substance": "O=C(O)Cc1ccccc1Nc1c(Cl)cccc1Cl", "test": "glucuronidation", "system": "human liver microsomes", "setting": "30 min, together with: UDPGA", "endpoint": "remaining compound", "result": "38 ± 3.2%"}
{"Substance": "CC(C)(Sc1ccncc1-c1ccc(C#N)c2ccccc12)C(=O)O", "system": "male, urine", "setting": "oral, 15 mg, 72 h, severe renal impairment", "endpoint": "renal clearance", "result": "2.86 mL/min"}
{"note": "A few entries again:"}
{"Substance": "O=C(O)COC[C@H]1CC[C@H](COC(=O)N(c2ccccc2)c2ccc(Cl)cc2)CC1", "system": "human, plasma", "setting": "oral, 30 µg, 12 h, multiple doses, twice daily, steady state", "endpoint": "concentration", "result": "0.00111 µg/mL"}
